Published values gathered from unrelated publications.
A part holds a random share of what one study measured. Positions count from the first letter of the parent shown.
Sequence of UniProt Q9UKE5 (whole entry, looked up): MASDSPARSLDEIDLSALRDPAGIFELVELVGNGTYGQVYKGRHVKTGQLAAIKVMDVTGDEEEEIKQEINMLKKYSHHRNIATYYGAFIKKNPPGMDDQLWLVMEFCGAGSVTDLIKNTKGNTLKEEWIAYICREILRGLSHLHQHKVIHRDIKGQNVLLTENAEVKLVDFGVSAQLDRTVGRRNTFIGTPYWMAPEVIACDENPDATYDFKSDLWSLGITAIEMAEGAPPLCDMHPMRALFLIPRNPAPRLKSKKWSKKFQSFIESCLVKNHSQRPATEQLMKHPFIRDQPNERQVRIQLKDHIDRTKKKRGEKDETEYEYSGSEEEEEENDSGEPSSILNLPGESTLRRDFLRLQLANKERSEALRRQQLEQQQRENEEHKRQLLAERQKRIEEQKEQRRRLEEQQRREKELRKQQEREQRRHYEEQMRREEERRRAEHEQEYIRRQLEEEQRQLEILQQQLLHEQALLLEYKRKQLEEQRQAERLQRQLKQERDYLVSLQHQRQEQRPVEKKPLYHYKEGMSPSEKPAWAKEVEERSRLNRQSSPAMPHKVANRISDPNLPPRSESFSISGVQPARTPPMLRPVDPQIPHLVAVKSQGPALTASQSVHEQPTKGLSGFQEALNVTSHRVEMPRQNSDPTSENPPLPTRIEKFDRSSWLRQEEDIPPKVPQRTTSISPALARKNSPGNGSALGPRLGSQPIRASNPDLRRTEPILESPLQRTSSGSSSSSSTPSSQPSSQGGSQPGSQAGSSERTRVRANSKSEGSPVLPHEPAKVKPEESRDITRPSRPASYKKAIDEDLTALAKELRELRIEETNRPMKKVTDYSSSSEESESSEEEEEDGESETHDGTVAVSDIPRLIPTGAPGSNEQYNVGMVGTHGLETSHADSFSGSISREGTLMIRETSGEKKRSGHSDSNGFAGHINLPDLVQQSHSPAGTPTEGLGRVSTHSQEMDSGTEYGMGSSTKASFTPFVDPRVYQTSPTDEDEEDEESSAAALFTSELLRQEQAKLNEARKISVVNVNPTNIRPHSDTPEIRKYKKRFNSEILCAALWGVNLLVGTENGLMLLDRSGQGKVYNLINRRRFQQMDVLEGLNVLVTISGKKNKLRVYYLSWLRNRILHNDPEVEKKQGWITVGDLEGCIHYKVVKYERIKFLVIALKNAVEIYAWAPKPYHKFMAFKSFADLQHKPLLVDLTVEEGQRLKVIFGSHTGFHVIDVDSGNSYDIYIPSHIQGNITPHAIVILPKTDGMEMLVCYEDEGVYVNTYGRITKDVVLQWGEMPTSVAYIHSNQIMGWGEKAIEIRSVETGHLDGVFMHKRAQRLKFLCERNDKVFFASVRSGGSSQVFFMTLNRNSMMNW
Sequence of UniProt Q9Y4K4 (whole entry, looked up): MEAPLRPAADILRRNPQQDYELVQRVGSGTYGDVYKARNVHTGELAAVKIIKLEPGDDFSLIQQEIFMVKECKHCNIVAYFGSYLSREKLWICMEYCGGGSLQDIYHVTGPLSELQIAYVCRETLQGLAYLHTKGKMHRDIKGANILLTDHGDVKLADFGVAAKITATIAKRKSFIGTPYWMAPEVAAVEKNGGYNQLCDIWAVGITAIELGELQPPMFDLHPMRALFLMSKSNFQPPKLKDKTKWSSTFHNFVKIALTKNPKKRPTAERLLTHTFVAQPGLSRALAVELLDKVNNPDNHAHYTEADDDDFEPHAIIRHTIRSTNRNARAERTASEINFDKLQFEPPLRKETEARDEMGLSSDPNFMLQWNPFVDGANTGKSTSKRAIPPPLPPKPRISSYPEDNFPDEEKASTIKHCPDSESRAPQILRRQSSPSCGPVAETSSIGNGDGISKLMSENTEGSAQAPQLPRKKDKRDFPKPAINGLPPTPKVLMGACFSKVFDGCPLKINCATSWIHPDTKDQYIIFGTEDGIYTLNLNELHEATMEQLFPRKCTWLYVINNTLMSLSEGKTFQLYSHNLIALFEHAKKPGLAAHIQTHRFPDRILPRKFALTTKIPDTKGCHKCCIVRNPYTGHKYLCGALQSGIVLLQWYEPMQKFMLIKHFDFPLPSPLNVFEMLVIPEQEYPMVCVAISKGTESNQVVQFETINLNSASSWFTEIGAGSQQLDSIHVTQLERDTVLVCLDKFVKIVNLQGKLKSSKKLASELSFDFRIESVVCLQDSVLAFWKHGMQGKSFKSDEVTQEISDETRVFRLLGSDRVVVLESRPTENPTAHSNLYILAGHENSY
Sequence of UniProt Q8WTQ7 (whole entry, looked up): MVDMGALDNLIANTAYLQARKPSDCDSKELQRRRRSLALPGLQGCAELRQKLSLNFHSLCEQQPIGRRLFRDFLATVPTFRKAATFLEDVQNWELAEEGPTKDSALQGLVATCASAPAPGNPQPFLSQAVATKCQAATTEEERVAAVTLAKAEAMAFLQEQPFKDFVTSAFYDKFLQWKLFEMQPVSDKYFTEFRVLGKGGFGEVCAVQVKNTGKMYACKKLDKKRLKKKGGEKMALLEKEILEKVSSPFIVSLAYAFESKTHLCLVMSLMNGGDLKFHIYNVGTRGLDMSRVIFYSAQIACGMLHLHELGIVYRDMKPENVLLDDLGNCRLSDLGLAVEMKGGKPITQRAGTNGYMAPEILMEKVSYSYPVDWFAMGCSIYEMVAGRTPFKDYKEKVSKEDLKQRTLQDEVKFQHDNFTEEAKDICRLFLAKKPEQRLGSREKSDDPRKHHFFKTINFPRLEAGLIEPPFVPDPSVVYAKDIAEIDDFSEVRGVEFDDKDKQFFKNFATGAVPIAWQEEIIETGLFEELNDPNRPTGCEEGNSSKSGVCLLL
Sequence of UniProt Q9UIK4 (whole entry, looked up): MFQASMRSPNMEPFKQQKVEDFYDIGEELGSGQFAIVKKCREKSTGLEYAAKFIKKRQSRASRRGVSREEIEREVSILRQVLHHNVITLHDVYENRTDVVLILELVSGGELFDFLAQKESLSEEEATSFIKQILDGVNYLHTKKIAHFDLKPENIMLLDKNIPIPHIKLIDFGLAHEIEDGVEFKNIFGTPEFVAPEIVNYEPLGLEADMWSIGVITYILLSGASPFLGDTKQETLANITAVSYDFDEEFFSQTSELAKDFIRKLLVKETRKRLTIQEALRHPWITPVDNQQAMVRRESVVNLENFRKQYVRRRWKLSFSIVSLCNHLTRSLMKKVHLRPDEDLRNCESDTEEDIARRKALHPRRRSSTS
Sequence of UniProt Q00532 (whole entry, looked up): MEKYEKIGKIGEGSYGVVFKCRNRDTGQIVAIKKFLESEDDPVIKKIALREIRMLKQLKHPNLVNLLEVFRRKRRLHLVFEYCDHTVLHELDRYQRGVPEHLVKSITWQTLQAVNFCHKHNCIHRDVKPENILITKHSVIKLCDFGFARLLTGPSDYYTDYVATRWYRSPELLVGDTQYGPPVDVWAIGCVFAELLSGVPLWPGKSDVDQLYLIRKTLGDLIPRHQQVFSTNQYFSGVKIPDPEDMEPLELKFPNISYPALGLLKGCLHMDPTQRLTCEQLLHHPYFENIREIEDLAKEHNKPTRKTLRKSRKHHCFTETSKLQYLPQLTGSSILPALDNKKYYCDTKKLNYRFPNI
Sequence of UniProt P27448 (whole entry, looked up): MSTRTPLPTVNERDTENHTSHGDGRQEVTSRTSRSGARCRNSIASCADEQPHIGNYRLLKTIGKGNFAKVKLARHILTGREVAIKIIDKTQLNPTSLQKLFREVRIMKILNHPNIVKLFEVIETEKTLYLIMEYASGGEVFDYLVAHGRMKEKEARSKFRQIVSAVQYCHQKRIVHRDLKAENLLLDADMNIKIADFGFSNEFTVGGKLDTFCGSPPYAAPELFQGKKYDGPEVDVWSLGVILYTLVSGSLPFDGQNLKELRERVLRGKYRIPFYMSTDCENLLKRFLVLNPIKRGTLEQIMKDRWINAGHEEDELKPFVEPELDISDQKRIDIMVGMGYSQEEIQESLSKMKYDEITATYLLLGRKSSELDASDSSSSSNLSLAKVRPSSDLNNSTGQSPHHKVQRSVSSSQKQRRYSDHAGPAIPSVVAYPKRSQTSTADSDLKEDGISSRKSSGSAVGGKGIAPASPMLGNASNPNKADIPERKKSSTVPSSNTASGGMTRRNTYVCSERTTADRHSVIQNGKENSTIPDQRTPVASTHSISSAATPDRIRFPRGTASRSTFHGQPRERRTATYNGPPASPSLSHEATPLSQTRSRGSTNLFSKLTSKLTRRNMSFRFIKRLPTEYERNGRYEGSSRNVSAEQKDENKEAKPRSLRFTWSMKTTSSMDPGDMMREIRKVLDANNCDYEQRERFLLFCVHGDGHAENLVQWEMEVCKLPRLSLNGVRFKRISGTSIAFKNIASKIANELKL
Sequence of UniProt O75914 (whole entry, looked up): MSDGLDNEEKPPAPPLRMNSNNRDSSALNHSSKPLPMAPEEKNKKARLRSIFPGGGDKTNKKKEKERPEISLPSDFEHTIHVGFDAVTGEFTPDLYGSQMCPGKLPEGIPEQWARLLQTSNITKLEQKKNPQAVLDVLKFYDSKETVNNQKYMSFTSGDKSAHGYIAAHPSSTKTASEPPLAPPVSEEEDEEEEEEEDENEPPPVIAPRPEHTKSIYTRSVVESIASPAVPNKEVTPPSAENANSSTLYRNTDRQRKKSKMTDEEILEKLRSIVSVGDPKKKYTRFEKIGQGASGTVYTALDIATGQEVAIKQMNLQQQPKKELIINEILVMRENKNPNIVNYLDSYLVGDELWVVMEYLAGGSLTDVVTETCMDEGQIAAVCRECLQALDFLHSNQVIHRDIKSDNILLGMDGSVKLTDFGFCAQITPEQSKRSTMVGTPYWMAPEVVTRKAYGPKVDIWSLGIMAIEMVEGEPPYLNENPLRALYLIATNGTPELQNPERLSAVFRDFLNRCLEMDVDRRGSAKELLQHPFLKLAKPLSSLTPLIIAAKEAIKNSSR

Block 1 — target: CCNA1, cyclin fold, Cln2 fusion (human); method: yeast growth competition, sequencing; matrix: yeast; setting: strong parent motif; reference: not given; direction: higher = stronger binding
Starting sequence: E2F1 docking peptide (human); PPVKRRLDFETDH; partner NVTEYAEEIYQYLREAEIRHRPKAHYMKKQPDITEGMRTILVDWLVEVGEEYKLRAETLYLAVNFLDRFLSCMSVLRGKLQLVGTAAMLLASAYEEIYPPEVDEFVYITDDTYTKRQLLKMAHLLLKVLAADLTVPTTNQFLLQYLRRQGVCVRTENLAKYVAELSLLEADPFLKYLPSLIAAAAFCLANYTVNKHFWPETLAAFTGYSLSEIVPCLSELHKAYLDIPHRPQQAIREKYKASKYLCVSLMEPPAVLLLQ
Variant | normalised enrichment score
P2N | 1.86
D12P | 2.07
E10A | 1.61
K4D | 0.289
L7Y | 0.0928
R6S | 1.45
V3A | 1.72
V3P | 1.75

Block 2 — method: protein binding microarray; molecule type: double-stranded DNA, one strand shown; matrix: in vitro; tested at: not given; reference: not given; direction: higher = stronger binding
Target: Histone acetyltransferase KAT6A, both winged helices, GST fusion (KAT6A, Homo sapiens, UniProt Q92794, residues 1-181)
Setting: 8-mer, flanks averaged, mean of 2 arrays, mostly near background
Construct (chain): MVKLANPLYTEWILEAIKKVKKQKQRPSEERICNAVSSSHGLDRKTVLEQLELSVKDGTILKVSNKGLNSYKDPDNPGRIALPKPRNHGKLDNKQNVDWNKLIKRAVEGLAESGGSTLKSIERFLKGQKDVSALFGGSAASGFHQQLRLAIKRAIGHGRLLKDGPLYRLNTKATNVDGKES
Strand | E-score
CATTATGA | -0.134
CGCGGACC | 0.307
TACATTAA | -0.0996
CCGCATAC | 0.143
GTTTCGGA | -0.06
GAACGACC | -0.0486
ACGTATAC | 0.105
CGGCATCC | 0.228

Block 3 — observed: cell-free assay; method: competition with immobilised ligand; tested at: 1 µM
SMILES: CCS(=O)(=O)c1cc2cc(C[C@@](O)(CC(C)(C)c3ccc(F)cc3C(N)=O)C(F)(F)F)[nH]c2cn1
target | remaining binding [%]
Death-associated protein kinase 2 (DAPK2, Homo sapiens, UniProt Q9UIK4) | 100
3-phosphoinositide-dependent protein kinase 1 (PDPK1, Homo sapiens, UniProt O15530) | 100
Serine/threonine-protein kinase 32C (STK32C, Homo sapiens, UniProt Q86UX6) | 90
Mast/stem cell growth factor receptor Kit, autoinhibited (KIT, Homo sapiens, UniProt P10721) | 100
Cyclin-dependent kinase-like 1 (CDKL1, Homo sapiens, UniProt Q00532) | 78
Mitogen-activated protein kinase kinase kinase kinase 5 (MAP4K5, Homo sapiens, UniProt Q9Y4K4) | 99
MAP/microtubule affinity-regulating kinase 3 (MARK3, Homo sapiens, UniProt P27448) | 100
Uncharacterized serine/threonine-protein kinase SBK3 (SBK3, Homo sapiens, UniProt P0C264) | 94
Rhodopsin kinase GRK7 (GRK7, Homo sapiens, UniProt Q8WTQ7) | 95
Serine/threonine-protein kinase PAK 3 (PAK3, Homo sapiens, UniProt O75914) | 100
TRAF2 and NCK-interacting protein kinase (TNIK, Homo sapiens, UniProt Q9UKE5) | 97
Serine/threonine-protein kinase Nek11 (NEK11, Homo sapiens, UniProt Q8NG66) | 100
Mitogen-activated protein kinase kinase kinase 10 (MAP3K10, Homo sapiens, UniProt Q02779) | 65

Single results of other studies
SMILES | target or system | system | conditions | scale | quantity | value
Cn1nc2c3c(cccc31)C(=O)c1ccccc1-2 | panel of 300 human kinases | – | 0.5 µM | higher = more selective | Gini score | 0.63
O=C1[C@@H]2CCCN2/C(=N/c2ccccc2)N1c1ccccc1 | – | mouse, microsomes or S9 | 2 µM, 0.5 h | – | remaining compound | 0.618%
Cc1cc(Nc2nc(-c3ccccc3)nc3ccccc23)n[nH]1 | panel of 300 human kinases | – | 0.5 µM | higher = more selective | Gini score | 0.57
Nc1nc(Nc2ccc(S(N)(=O)=O)cc2)nn1C(=O)c1c(F)cccc1F | panel of 300 human kinases | – | 0.5 µM | higher = more selective | Gini score | 0.59

Repeated from above (block 1):
Variant | normalised enrichment score
D12P | 2.07
E10A | 1.61
K4D | 0.289
L7Y | 0.0928
R6S | 1.45
